Measured values of several laboratories.
Each line is one published result; not all experiments were run side by side. ± marks the error that the study gave.

Structure (SMILES)	assay	system	conditions	how to read	quantity	value
CCCCSc1nnc(-c2ccccc2)o1	nitric oxide scavenging				IC50	110 ± 5.1 µM
CC[C@H]1[C@@H](O)[C@@H]2[C@H](CC[C@]3(C)[C@@H]([C@H](C)CCOS(=O)(=O)[O-])CC[C@@H]23)[C@@]2(C)CC[C@@H](O)C[C@@H]12.[Na+]		ob/ob NASH mouse model	oral, 10 mg/kg once daily, 8 weeks		body weight	51.3 ± 1.8 g
CC(C)C[C@H](NC(=O)[C@H](CCCNC(=N)N)NC(=O)CNC(=O)[C@@H](N)CC(C)C)C(=O)N[C@@H](CO)C(=O)N[C@@H](CCC(N)=O)C(=O)N[C@@H](CCC(=O)O)C(=O)N[C@@H](CC(C)C)C(=O)N[C@@H](Cc1c[nH]cn1)C(=O)N[C@@H](CCCNC(=N)N)C(=O)N[C@@H](CC(C)C)C(=O)N[C@@H](CCC(N)=O)C(=O)N[C@H](C(=O)N[C@@H](Cc1ccc(O)cc1)C(=O)N1CCC[C@H]1C(=O)N[C@@H](CCCNC(=N)N)C(=O)N[C@H](C(=O)N[C@@H](CC(N)=O)C(=O)N[C@H](C(=O)NCC(=O)N[C@@H](CO)C(=O)N[C@@H](CC(N)=O)C(=O)N[C@H](C(=O)N[C@@H](Cc1ccc(O)cc1)C(N)=O)[C@@H](C)O)[C@@H](C)O)[C@@H](C)O)[C@@H](C)O		TgCRND8 mice, brain	icv, dose not given, 5 months	relative to: vehicle	Iba-1 level reduction	50%
C[C@H](NC(=O)COC(=O)[C@H](C)NC(=O)CO)C(=O)O		water	pH 8, 50 °C		depolymerization rate constant	66.4 h⁻¹
CCCC[C@H](NC(=O)[C@@H](NC(=O)[C@H](CC(=O)O)NC(=O)[C@H](CCC(N)=O)NC(=O)[C@H](CC(C)C)NC(=O)[C@H](CC(C)C)NC(=O)[C@H](CCCN)NC(=O)[C@H](CCCNC(=N)N)NC(=O)[C@H](C)NC(=O)[C@H](CO)NC(=O)[C@H](CC(C)C)NC(=O)[C@H](CCC(N)=O)NC(=O)[C@H](CC)NC(=O)[C@H](CC(C)C)NC(=O)[C@@H](NC(=O)[C@H](CCCN)NC(=O)[C@H](CCCNC(=N)N)NC(=O)[C@H](Cc1ccc(O)cc1)NC(=O)[C@H](CO)NC(=O)[C@H](CCC(N)=O)NC(=O)[C@@H](NC(=O)[C@H](Cc1ccccc1)NC(=O)[C@@H](NC(=O)[C@H](C)NC(=O)[C@H](CC(=O)O)NC(=O)[C@H](C)NC(=O)CCc1ccc(O)cc1)[C@@H](C)CC)[C@@H](C)O)C(C)C)[C@@H](C)CC)C(=O)N[C@@H](CC(=O)O)C(=O)N[C@@H](CCCNC(=N)N)C(=O)NC	GH release	rat, male, serum	subcutaneous, dose not given, 15 and 30 min	relative to: reference GHRH agonist JI-38	relative potency	1 to 4 fold
O=C1/C(=C/c2ccc(O)cc2)Oc2cc(O)c(-c3ccc(O)c(O)c3)c(O)c21	ABTS scavenging, absorbance				EC50	1180 µM
CC(=O)c1cnc(N)nc1N1CC[C@H]1c1nn2ccc(Cl)c2c(=O)n1-c1ccccc1	Th17 differentiation, item: IFNγ	rheumatoid arthritis patient whole blood			IC50	0.066 µM
CCCC[C@H](NC(=O)[C@@H](NC(=O)[C@H](CC(=O)O)NC(=O)[C@H](CCC(N)=O)NC(=O)[C@H](CC(C)C)NC(=O)[C@H](CC(C)C)NC(=O)[C@H](CCCN)NC(=O)[C@H](CCCNC(=N)N)NC(=O)[C@H](C)NC(=O)[C@H](CO)NC(=O)[C@H](CC(C)C)NC(=O)[C@H](CCC(N)=O)NC(=O)[C@H](CC)NC(=O)[C@H](CC(C)C)NC(=O)[C@@H](NC(=O)[C@H](CCCN)NC(=O)[C@H](CCCNC(=N)N)NC(=O)[C@H](Cc1ccc(O)cc1)NC(=O)[C@H](CO)NC(=O)[C@H](CC(N)=O)NC(=O)[C@@H](NC(=O)[C@H](Cc1ccccc1)NC(=O)[C@@H](NC(=O)[C@H](C)NC(=O)[C@H](CC(=O)O)NC(=O)[C@@H](C)NC(=O)[C@H](Cc1ccc(O)cc1)NC)[C@@H](C)CC)[C@@H](C)O)C(C)C)[C@@H](C)CC)C(=O)N[C@@H](CC(=O)O)C(=O)NCCCCNC(=N)N	GH release	rat, male, serum	subcutaneous, 3 µg/kg, 30 min	relative to: reference GHRH agonist JI-38	relative potency	1.18
O=C(O)CNC(=O)CNC(=O)[C@@H]1CCCN1C(=O)[C@@H]1CCCN1	diketopiperazine formation, Arrhenius plot, ESI-MS	1-propanol	70, 80, 90 °C, 0.5% acetic acid		activation energy	18.4 ± 0.239 kcal/mol
Cc1cc(O)c(C=O)c2c1C(=O)Oc1c(CO)c(O)c3c(c1O2)C(O)OC3=O (stereo not shown)	mating test	rat, male, streptozotocin-induced diabetes	10 mg/kg		mating success	83.3%

For quick reference, copied from above:
Structure (SMILES)	assay	system	conditions	how to read	quantity	value
O=C1/C(=C/c2ccc(O)cc2)Oc2cc(O)c(-c3ccc(O)c(O)c3)c(O)c21	ABTS scavenging, absorbance				EC50	1180 µM
